Assay results gathered from unrelated publications.
Each line is one published result; not all experiments were run side by side.

The half-life of `COc1cc([C@@H]2[C@H]3CO[C@@]4(O)C(=O)[C@@H]2C=C([C@H]2Oc5cc(O)cc(O)c5C(=O)[C@@H]2O)[C@@H]34)ccc1O` is reported as 7.7 h (FVB wild-type mice, plasma; oral gavage, 500 mg/kg silymarin).
For `Nc1ncn([C@H]2C[C@H](O)[C@@H](CO)O2)c(=O)n1`, the half-life was 0.94 h (UHPLC-MS/MS; C57BL/6 mice, female, plasma; oral, 0.4 mg/kg).
The half-life of `COc1cccc2c(N3CCC(CCP(=O)(O)O)CC3)ncnc12` is reported as 2.6 h (LC-MS; female mice, MC-38 subcutaneous tumour, serum; 50 mg/kg).
`Cc1c(C(=O)O)ccc2c3n(nc12)[C@@H]1[C@H](C3)N(CC2CC2)[C@@]2(C(=O)Nc3cc(Cl)ccc32)[C@H]1c1cccc(Cl)c1F` has a half-life of 9.3 h (female BALB/c nude mice, SJSA-1 xenograft, plasma; oral, 1 mg/kg twice daily, 2 doses, mean).
`CCN1CCN(Cc2ccc(NC(=O)c3ccc(C)c(NC(=O)c4cncc(-c5cccs5)c4)c3)cc2C(F)(F)F)CC1` has a half-life of 1.87 h (C57BL/6 mice, epithelial lining fluid; intraperitoneal, 20 mg/kg).
`CCN(c1cc(-c2ccc(CN3CCOCC3)cc2)cc(C(=O)NCc2c(C)cc(C)[nH]c2=O)c1C)C1CCOCC1` has a half-life of 1.43 h (female CB17 SCID mice, HT-1376 xenograft, plasma; 75 mg/kg, day 1).
`CC1(C)CC[C@]2(C(=O)O)CC[C@]3(C)C(=CC[C@@H]4[C@@]5(C)C[C@@H](O)[C@H](OC(=O)/C=C/c6ccc(O)cc6)C(C)(C)[C@@H]5CC[C@]43C)[C@@H]2C1` (relative stereo) has a half-life of 1.75 h (C57BL/6 mice, brain; intraperitoneal, 85 µmol/kg single dose).
For `COc1cc([C@H]2Oc3cc([C@H]4Oc5cc(O)cc(O)c5C(=O)[C@@H]4O)ccc3O[C@@H]2CO)ccc1O`, the half-life was 0.34 h (FVB wild-type mice, plasma; oral gavage, 500 mg/kg silymarin).
`O=[N+]([O-])c1ccc(-c2ccc(O)cc2)c2cccnc12` has a half-life of 0.742 h (ICR mice male, plasma; oral, 5 mg/kg).
`CC1CCNc2c(C(=O)NC/C=C/S(C)(=O)=O)cccc21` (centres unmarked) gave a half-life of roughly 0.833 h (male C57BL/6 mice, plasma; oral, 10 mg/kg).
`COc1cc([C@@H]2Oc3ccc([C@H]4Oc5cc(O)cc(O)c5C(=O)[C@@H]4O)cc3O[C@H]2CO)ccc1O` has a half-life of 0.38 h (FVB wild-type mice, plasma; oral gavage, 500 mg/kg silymarin).

A few entries again:
For `COc1cc([C@H]2Oc3cc([C@H]4Oc5cc(O)cc(O)c5C(=O)[C@@H]4O)ccc3O[C@@H]2CO)ccc1O`, the half-life was 0.34 h (FVB wild-type mice, plasma; oral gavage, 500 mg/kg silymarin).
`O=[N+]([O-])c1ccc(-c2ccc(O)cc2)c2cccnc12` has a half-life of 0.742 h (ICR mice male, plasma; oral, 5 mg/kg).
